Measurements of several laboratories.
Each line is one published result; not all experiments were run side by side. ± marks the error that the study gave.
Target: Pancreatic alpha-amylase (AMY2, Sus scrofa, UniProt P00690)
Observed: enzyme activity
Mode: inhibitor
Sequence (P00690 16-511, as in one of the studies): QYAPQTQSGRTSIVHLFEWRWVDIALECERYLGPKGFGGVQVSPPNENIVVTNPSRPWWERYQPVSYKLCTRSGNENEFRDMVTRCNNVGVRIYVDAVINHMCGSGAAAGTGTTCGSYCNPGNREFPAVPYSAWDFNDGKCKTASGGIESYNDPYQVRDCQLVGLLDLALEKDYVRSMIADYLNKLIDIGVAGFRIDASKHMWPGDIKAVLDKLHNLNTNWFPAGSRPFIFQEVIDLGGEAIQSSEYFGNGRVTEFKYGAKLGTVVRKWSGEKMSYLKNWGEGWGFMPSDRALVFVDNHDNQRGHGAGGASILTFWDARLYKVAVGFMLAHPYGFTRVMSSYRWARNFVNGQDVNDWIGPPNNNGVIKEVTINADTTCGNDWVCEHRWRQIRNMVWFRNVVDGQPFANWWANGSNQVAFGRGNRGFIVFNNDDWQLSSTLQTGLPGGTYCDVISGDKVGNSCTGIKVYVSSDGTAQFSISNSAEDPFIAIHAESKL

Compound = CC(=O)C1=C(C)NC(=O)NC1c1ccc(F)cc1 (centres unmarked); quantity = IC50; result = 40.5 µM
Compound = COC(CO)c1ccc(O)c(O)c1 (centres unmarked); quantity = IC50; result = > 500 µM
Compound = Cc1ccc(N(O)/N=N/c2ccc(S(=O)(=O)Nc3nccs3)cc2)cc1; quantity = IC50; result = 839 µM
Compound = CC(=O)C1=C(C)NC(=O)NC1c1cccc(C)c1 (centres unmarked); quantity = IC50; result = 67 µM
Compound = O=C(CN1C(C(=O)c2ccccc2)=C(O)c2ccccc2S1(=O)=O)Nc1ccccc1Br; quantity = Ki; result = 287 µM
Compound = CC(=O)C1=C(C)NC(=O)NC1c1cccc(Cl)c1 (centres unmarked); quantity = IC50; result = 50.5 µM
Compound = C=C[C@]1(C)CC[C@H]2C(=C[C@H]3OC(=O)[C@@]4(C)C(=O)CC[C@@]2(C)[C@@H]34)C1; quantity = IC50; result = 422 µM
Compound = CC(=O)C1=C(C)NC(=O)NC1c1ccc(Cl)cc1 (centres unmarked); quantity = IC50; result = 38.6 µM
Compound = COc1cc([C@H]2OCC3C2CO[C@@H]3c2ccc(O)c(OC)c2)ccc1O (single isomer, unassigned; (+)); quantity = IC50; result = > 500 µM
Compound = C=C1CC[C@@H]2C(C)(C)[C@H](O)CC[C@@]2(C)[C@@H]1COc1ccc2ccc(=O)oc2c1; technique = absorbance; pH = pH 6; quantity = IC50; result = 22.1 µM
Compound = COc1cc([C@H]2OC[C@]3(OC(C)=O)[C@@H](c4ccc(O)c(OC)c4)OC[C@H]23)ccc1O; quantity = IC50; result = 13.9 µM
Compound = Cc1cccc(/C=C/C(=O)c2cnn(-c3ccccc3)c2C)c1; technique = absorbance; quantity = IC50; result = 502 µM
Compound = C=CC1(C)CCC2C(=CC3OC(=O)C4(C)C3C23CCC4(O)OC3)C1 (centres unmarked); quantity = IC50; result = 390 µM
Compound = Cc1cc(O)c(C=O)c2c1C(=O)Oc1c(CO)c(O)c3c(c1O2)C(O)OC3=O (centres unmarked); quantity = IC50; result = 0.114 ± 0.00612 µM

Some of these lines once more:
Compound = CC(=O)C1=C(C)NC(=O)NC1c1ccc(F)cc1 (centres unmarked); quantity = IC50; result = 40.5 µM
Compound = COC(CO)c1ccc(O)c(O)c1 (centres unmarked); quantity = IC50; result = > 500 µM
